Measured values gathered from unrelated publications.
Compare with care: the assays were run in different laboratories. Several values in a cell are separate wells, animals, samples, runs or records. ± marks the error that the study gave.
rep main protease: Replicase polyprotein 1ab, main protease (rep, Severe acute respiratory syndrome coronavirus 2, UniProt P0DTD1)
rep methyltransferase: Replicase polyprotein 1ab, methyltransferase (rep, Severe acute respiratory syndrome coronavirus 2, UniProt P0DTD1)
Spike glycoprotein: Spike glycoprotein (Severe acute respiratory syndrome coronavirus 2, UniProt P0DTC2)
rep nsp13 helicase: Replicase polyprotein 1ab, nsp13 helicase (rep, Severe acute respiratory syndrome coronavirus 2, UniProt P0DTD1)
rep papain-like protease: Replicase polyprotein 1ab, papain-like protease (rep, Severe acute respiratory syndrome coronavirus 2, UniProt P0DTD1)
rep nsp14: Replicase polyprotein 1ab, nsp14 (rep, Severe acute respiratory syndrome coronavirus 2, UniProt P0DTD1)

N#Cc1ccccc1-c1cc(-c2ccccn2)cn(-c2ccccc2)c1=O — IC50 (rep main protease; enzyme activity, inhibitor, FRET): 100 to 250 µM
Oc1ccc2ccccc2c1SSc1c(O)ccc2ccccc12 — IC50 (rep methyltransferase; enzyme activity, inhibitor): 10.1 µM
CNC(=O)[C@@H](NC(=O)[C@H](CC(C)C)[C@H](O)C(=O)NO)C(C)(C)C — IC50 (snake venom metalloproteinase; proteolytic activity, inhibitor; Daboia russelii, venom GA; together with: azocasein): 2.44 µM and 2.16 µM and 2.39 µM
COc1ccc(C[C@@H]2c3cc(Oc4cc(C[C@@H]5c6cc(O)c(OC)cc6CCN5C)ccc4O)c(OC)cc3CCN2C)cc1 — Kd (Spike glycoprotein; binding, BLI): 32.5 µM
Cc1cc(Cl)ccc1Oc1ccccc1C(=O)CC#N — IC50 (rep nsp13 helicase; helicase ATPase activity, inhibitor, Kinase-Glo luminescence; 60 min, together with: 2.5 µM ATP): 58 µM
Nc1nc(OCc2cc(Br)cs2)c2[nH]cnc2n1 — IC50 (rep methyltransferase; enzyme activity, inhibitor): > 100 µM
Cc1nn(-c2ccc(Cl)cc2)c2c1C(c1ccc(Cl)cc1Cl)C(C#N)=C(N)O2 (stereo not drawn) — IC50 (rep main protease; 3CL protease activity; 60 min): 3.68 µM
CCC(C(=O)Nc1ccccc1C)n1cccc2nc(SCc3ccccc3F)nc1-2 (stereo not drawn) — IC50 (rep papain-like protease; enzyme activity, inhibitor): 3.58 µM
CC(=O)Oc1cccc2c1C(=O)c1c(OC(C)=O)cc(C(=O)O)cc1C2=O — IC50 (rep nsp14; methyltransferase activity, inhibitor, RapidFire MS, refers to: SAH): 40.7 to 80.4 µM
Cl.Cl.Cl.Cl.Cl.Cl.N.N.N.N.N.N.N.N.N.N.N.N.N.N.[O-2].[O-2].[Ru+3].[Ru+3].[Ru+4] — IC50 (rep methyltransferase; enzyme activity, inhibitor): 5.9 µM
Cc1ccc(C(CCN(Cc2ccccc2)C(=O)c2ccco2)c2ccco2)cc1 (stereo not drawn) — IC50 (rep nsp13 helicase; helicase ATPase activity, inhibitor, Kinase-Glo luminescence; 60 min, together with: 2.5 µM ATP): 20 µM
O=c1cc(-c2ccc(O)cc2)oc2cc(O)cc(O)c12 — IC50 (rep main protease; enzyme activity, inhibitor; together with: fluorogenic substrate): 38.8 ± 1.65 µM
Cc1c(S(=O)(=O)N2CCc3n[nH]cc3C2)cc(C(=O)NCc2c(F)cccc2N2CCCC2)n1C — IC50 (rep nsp14; inhibitor): 0.00039 µM
CC[C@H](C)[C@H](NC(=O)[C@H](CC(C)C)NC(=O)[C@H](Cc1c[nH]c2ccccc12)NC(=O)[C@H](CCC(N)=O)NC(=O)[C@@H](NC(=O)[C@H](Cc1ccccc1)NC(=O)[C@H](C)NC(=O)[C@H](CCCCNC(=O)COCCOCCNC(=O)COCCOCCNC(=O)CC[C@H](NC(=O)CCCCCCCCCCCCCCCCCCC(=O)O)C(=O)O)NC(=O)[C@H](CCC(N)=O)NC(=O)[C@H](C)NC(=O)[C@@H](NC(=O)[C@H](CCCCN)NC(=O)[C@H](CC(=O)O)NC(=O)[C@H](CC(C)C)NC(=O)C(C)(C)NC(=O)[C@@H](NC(=O)[C@H](CO)NC(=O)[C@H](Cc1ccc(O)cc1)NC(=O)[C@H](CC(=O)O)NC(=O)[C@H](CO)NC(=O)[C@@H](NC(=O)[C@H](Cc1ccccc1)NC(=O)[C@@H](NC(=O)CNC(=O)[C@H](CCC(=O)O)NC(=O)C(C)(C)NC(=O)[C@@H](N)Cc1ccc(O)cc1)[C@@H](C)O)[C@@H](C)O)[C@@H](C)CC)[C@@H](C)CC)C(C)C)C(=O)N[C@@H](C)C(=O)NCC(=O)NCC(=O)N1CCC[C@H]1C(=O)N[C@@H](CO)C(=O)N[C@@H](CO)C(=O)NCC(=O)N[C@@H](C)C(=O)N1CCC[C@H]1C(=O)N1CCC[C@H]1C(=O)N1CCC[C@H]1C(=O)N[C@@H](CO)C(N)=O — subjects with adverse event (refers to: treatment-emergent back pain; healthy subjects; 0.5 mg, multiple ascending dose): 16.7%
verteporfin — IC50 (rep main protease; enzyme activity, inhibitor; SARS-CoV-2): 22.9 ± 9.32 µM
CCC(C(=O)Nc1ccccc1C)n1cccc2nc([S+]([O-])Cc3ccc(F)cc3)nc1-2 (stereo not drawn) — IC50 (rep papain-like protease; enzyme activity, inhibitor): 16.3 µM
CCCCCOc1ccc(C2C(C(=O)c3ccc(C)o3)=C(O)C(=O)N2c2cc(C)on2)cc1 (stereo not drawn) — IC50 (rep nsp13 helicase; helicase ATPase activity, inhibitor, Kinase-Glo luminescence; 60 min, together with: 2.5 µM ATP): 5 µM
CCC(C(=O)Nc1cc(NC2CNC2)ccc1C)n1cc(Cl)cc2nc(SCc3ccc(F)cc3)nc1-2 (stereo not drawn) — IC50 (rep papain-like protease; enzyme activity, inhibitor): 0.095 µM
CCn1c[n+](CC)c2ccc(OC)cc21.[Cl][Ag] — IC50 (rep main protease; enzyme activity, inhibitor): > 50 µM
O=C(Nc1cccc(C(=O)Nc2ccc(S(=O)(=O)O)c3cc(S(=O)(=O)O)cc(S(=O)(=O)O)c23)c1)Nc1cccc(C(=O)Nc2ccc(S(=O)(=O)O)c3cc(S(=O)(=O)O)cc(S(=O)(=O)O)c23)c1 — IC50 (rep methyltransferase; enzyme activity, inhibitor): 84.7 µM
CC1CC(c2ccc(C(=O)O)cc2)=NN1c1cccc(Cl)c1 (stereo not drawn) — IC50 (rep methyltransferase; enzyme activity, inhibitor): 7.94 µM
CCn1ccc(-c2cc(-c3cnn(C)c3)cc([C@@H](C)NC(=O)c3ccccc3CCC(=O)NCC(=O)CF)c2)n1 — IC50 (rep papain-like protease; enzyme activity, inhibitor): > 10 µM
CC(=O)c1c(O)c(C)c(O)c(Cc2c(O)c3c(c(C(=O)/C=C/c4ccccc4)c2O)OC(C)(C)C=C3)c1O — IC50 (rep methyltransferase; enzyme activity, inhibitor): 13.9 µM
CCn1c[n+](CC)c2ccccc21.[Ag][I] — IC50 (rep main protease; enzyme activity, inhibitor): > 50 µM
Oc1c(Cl)cc(Cl)c(Cl)c1Cc1c(O)c(Cl)cc(Cl)c1Cl — IC50 (rep methyltransferase; enzyme activity, inhibitor; pH 7.5): < 10 µM
N#Cc1ccc(N2N=C3c4ccc(O)cc4CCC3C2C2CCCC2)cc1Cl (stereo not drawn) — IC50 (rep methyltransferase; enzyme activity, inhibitor): 5.01 µM
CC1=C(C#N)c2nc(N)c(C#N)c(C)c2/C1=C/c1ccc(-c2cccc(C(=O)O)c2)o1 — IC50 (rep nsp13 helicase; helicase ATPase activity, inhibitor, Kinase-Glo luminescence; 60 min, together with: 2.5 µM ATP): 11 µM
COc1ccccc1C(C)NC(=O)c1cc(S(=O)(=O)N2CCC(C)CC2)c(C)n1C (stereo not drawn) — IC50 (rep nsp14; inhibitor): 1.1 µM
colistin sulfate — IC50 (rep papain-like protease; PLpro activity, inhibitor; 30 min, 37 °C, together with: substrate 27 µM): 2.94 ± 0.54 µM
CNC(=O)c1ccc(C2=NN(c3ccc(C#N)c(Cl)c3)C(C)C2)cc1 (stereo not drawn) — IC50 (rep methyltransferase; enzyme activity, inhibitor): > 100 µM
Cc1ccccc1NC(=O)C(C)n1c(SCc2ccc(F)cc2)nc2cccnc21 (stereo not drawn) — IC50 (rep papain-like protease; enzyme activity, inhibitor): > 20 µM
C/C1=C2/[N-][C@H]([C@H](CC(N)=O)[C@@]2(C)CCC(=O)NC[C@@H](C)OP(=O)([O-])O[C@H]2[C@@H](O)[C@@H](n3cnc4cc(C)c(C)cc43)O[C@@H]2CO)[C@]2(C)N=C(/C(C)=C3N=C(/C=C4N=C1[C@@H](CCC(N)=O)C\4(C)C)[C@@H](CCC(N)=O)[C@]\3(C)CC(N)=O)[C@@H](CCC(N)=O)[C@]2(C)CC(N)=O.[Co+3].[OH-] — IC50 (rep main protease; 3CL protease activity, inhibitor): 3.29 µM
O=[N+]([O-])c1cc(O)c(O)c([N+](=O)[O-])c1 — IC50 (rep methyltransferase; enzyme activity, inhibitor): 12.2 µM
CCCCn1c(NS(=O)(=O)c2ccc(C)cc2)c(S(=O)(=O)c2ccccc2)c2nc3ccccc3nc21 — IC50 (rep nsp13 helicase; helicase ATPase activity, inhibitor, Kinase-Glo luminescence; 60 min, together with: 2.5 µM ATP): 3 µM
CC(C)C1CC(c2ccc(C(=O)O)cc2)=NN1c1ccc(C#N)c(Cl)c1 (stereo not drawn) — IC50 (rep methyltransferase; enzyme activity, inhibitor): 3.16 µM
CN1CCCC(n2nc(Cc3ccc(Cl)cc3)c3ccccc3c2=O)CC1 (stereo not drawn) — IC50 (rep main protease; enzyme activity, inhibitor, FRET): 20 to 100 µM
CCC(C(=O)Nc1cc(NC2COC2)ccc1C)n1cccc2nc(SCc3ccc(F)cc3)nc1-2 (stereo not drawn) — IC50 (rep papain-like protease; enzyme activity, inhibitor): 0.342 µM
CCCCOc1ccc(-c2cc(C(F)(F)F)c(C#N)c(SCC(=O)O)n2)cc1 — IC50 (rep nsp13 helicase; helicase ATPase activity, inhibitor, Kinase-Glo luminescence; 60 min, together with: 2.5 µM ATP): 24 µM
COc1ccc2c(c1)n(C(C)C)c[n+]2C(C)C.[Ag][I] — IC50 (rep main protease; enzyme activity, inhibitor): > 50 µM
N#Cc1sc2nc(-c3ccccc3)cc(-c3ccco3)c2c1N — IC50 (rep nsp13 helicase; helicase ATPase activity, inhibitor, Kinase-Glo luminescence): > 100 µM
CCc1c2c(nc3ccc(OC(=O)N4CCC(N5CCCCC5)CC4)cc13)-c1cc3c(c(=O)n1C2)COC(=O)[C@]3(O)CC — Kd (Spike glycoprotein; binding, BLI): 59.8 µM
Cc1ccc(C)n1-c1sc2c(c1C(=O)O)CCCC2 — IC50 (rep nsp13 helicase; helicase ATPase activity, inhibitor, Kinase-Glo luminescence): > 150 µM
Cn1cnc(Cn2c(=O)[nH]/c(=N\c3cc4cn(C)nc4cc3Cl)n(Cc3cc(F)c(F)cc3F)c2=O)n1 — patients with adverse event (human, severe renal impairment; oral, 375 mg, decreased GFR TEAE, moderate severity): 0%
CC(=O)N[C@@H](CS)C(=O)O — IC50 (rep nsp13 helicase; helicase ATPase activity, inhibitor; based on Bi content): > 150 µM
CC[C@H](CC[C@@H](C)[C@H]1CC[C@H]2[C@@H]3CC=C4C[C@@H](O[C@@H]5O[C@H](CO)[C@@H](O)[C@H](O)[C@H]5O)CC[C@]4(C)[C@H]3CC[C@]12C)C(C)C — IC50 (rep main protease; enzyme activity, inhibitor; together with: fluorogenic substrate): 137 ± 5.83 µM
Nc1ncnc2c([C@@H]3N[C@H](CO)[C@@H](O)[C@H]3O)c[nH]c12 — inhibition (Marburg virus; viral replication; HeLa, Angola; 50 µM): 95.3%
CCC(C(=O)Nc1cnn(C)c1)n1cccc2nc(SCc3ccc(F)cc3)nc1-2 (stereo not drawn) — IC50 (rep papain-like protease; enzyme activity, inhibitor): > 20 µM
CC(COc1ccccc1)N(CCCl)Cc1ccccc1 (stereo not drawn) — IC50 (rep nsp14; methyltransferase activity, inhibitor, RapidFire MS, refers to: SAH): 58.2 to 91 µM

Repeated from above:
CCC(C(=O)Nc1ccccc1C)n1cccc2nc(SCc3ccccc3F)nc1-2 (stereo not drawn) — IC50 (rep papain-like protease; enzyme activity, inhibitor): 3.58 µM
CNC(=O)c1ccc(C2=NN(c3ccc(C#N)c(Cl)c3)C(C)C2)cc1 (stereo not drawn) — IC50 (rep methyltransferase; enzyme activity, inhibitor): > 100 µM
CC(C)C1CC(c2ccc(C(=O)O)cc2)=NN1c1ccc(C#N)c(Cl)c1 (stereo not drawn) — IC50 (rep methyltransferase; enzyme activity, inhibitor): 3.16 µM
